# Measurements of several laboratories.
# Every numbered part comes from another study and shows a few of its results, in no order.

# Series 1 — technique: RNA Bind-n-Seq; molecule type: RNA; sample: in vitro; tested at: not given; baseline: input RNA pool; reading: higher = stronger binding
# Target: RING finger protein unkempt homolog, zinc fingers 1-6, GST-SBP tag (UNK, Homo sapiens, UniProt Q9C0B0, residues 30-357)
# Notes: RNA with constant flanks, human-mouse chimeric sites, ends assumed
# Construct (chain): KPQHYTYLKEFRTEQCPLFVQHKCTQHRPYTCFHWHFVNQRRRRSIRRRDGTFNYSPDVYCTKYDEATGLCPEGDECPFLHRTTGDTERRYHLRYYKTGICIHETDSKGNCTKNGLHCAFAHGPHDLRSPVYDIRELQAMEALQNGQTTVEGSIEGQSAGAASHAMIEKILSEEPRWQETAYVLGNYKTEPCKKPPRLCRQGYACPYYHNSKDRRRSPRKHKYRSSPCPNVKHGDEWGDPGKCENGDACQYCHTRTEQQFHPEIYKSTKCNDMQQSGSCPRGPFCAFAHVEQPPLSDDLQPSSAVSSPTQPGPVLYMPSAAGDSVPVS
Oligonucleotide,bound/input enrichment
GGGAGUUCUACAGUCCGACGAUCUACUACUAUGAUGGUGAUAUUGGCAAUUAUUAUUAUGGCCAGGGUCAUCCCAUGAAGCCUCAUAGAAUCCGCAUGACUCAUAACUUGCUGCUAAAUUAUGGUUUAUACCGAAAAAUGGAACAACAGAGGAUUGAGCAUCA,0.208 ratio
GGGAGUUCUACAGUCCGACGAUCCUGGCCUGGCCCUCCCCUCUAGUGACCUUUCGUAUAGUCACUGCUUCUGCAUCAGAUAUUUUUAGCUGCAACUCCCUACUGGGUGGGGCACCCAUUUCAGGCAGAAGGUUUUGGUACCCUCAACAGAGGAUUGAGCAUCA,0.53 ratio
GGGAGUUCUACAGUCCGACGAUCUCUUAACUUAUUCAUUUAACUUAUUUUUAGCACUUAGUAAAUAUUGUUAGUCUUAGUCAAUAGCUCACAUUUUUUGAGAAGCAUGCCCUCCCUGUCCAUUUGUCUUAUAACAUGACCCAGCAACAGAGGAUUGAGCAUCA,391 ratio
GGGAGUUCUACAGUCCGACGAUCAAAGAACCUCUCUCUGAAGAAGAGGAAGACAGUGAUGAUGAUGUUGAACCCAUUUCUGAAUUUCGAUUUGUGCCCAGUGAUAAGUCAGCAUUGGAGGCGAUGUUCACAGCAAUGUGUGAGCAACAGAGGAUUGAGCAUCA,0.219 ratio
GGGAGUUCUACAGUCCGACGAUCAACAGAUUGUCUUUAAGCAUUCCAAGCGAGAAUGCUGAAAUAGUCAUUGUUGCCCAUGUGCCUUCUGUAAUAGAUGGAAUGCUGUUCCAUGUUACAUCUUUCCUUCACUCCAGAAUUGUUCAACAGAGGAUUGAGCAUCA,0.151 ratio
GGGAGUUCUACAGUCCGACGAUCAAAGAGAAACUAAAGCAACUAAUAGAGAAGAGGAUUGGCAAAGAGAAUUUCAUAGAGAAACUAGGAUUUAUUAGCAAACAUGAGUUAUAUUCCAGAGGCAUCUCAGAAACCCCAGCCAACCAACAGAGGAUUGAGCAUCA,9.58 ratio
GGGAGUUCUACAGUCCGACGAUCCGCAGAAGGUUAAAGGGUGAGAGUGGGGUGGAAGACUGUGUCAUGGCUCUGGAGACACUGUUCAGUGUCCUGCUUUCUCUUUGCAGACUGAUGGCCCCUUACACGCCCUUUCUGACUGAGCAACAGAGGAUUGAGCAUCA,0.0967 ratio

# Series 2 — technique: RNA Bind-n-Seq; molecule type: RNA; sample: in vitro; tested at: 365 nM; baseline: no-protein control; reading: higher = stronger binding
# Target: RNA binding protein fox-1 homolog 2, RRM domain, GST-SBP tag (RBFOX2, Homo sapiens, UniProt O43251-10, residues 100-194)
# Notes: natural RNA segment, single round, ends assumed
# Target sequence (chain): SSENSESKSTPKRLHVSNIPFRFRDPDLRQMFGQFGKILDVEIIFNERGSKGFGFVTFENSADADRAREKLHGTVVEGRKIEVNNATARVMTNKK
Oligonucleotide,RBNS enrichment (R)
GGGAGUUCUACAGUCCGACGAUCCCAUCGUUAGGACUCCUGAGUAACCAGGAGUUGCUGACUGUCCCUUCAAGUGACUGUGGCUCCUUUCUCUCCCUGGCCCCUAGUUUCUCCAUCUCCCAGACCAAGGGGGCUGGAAUUCUCGGGUGCCAA,0.162
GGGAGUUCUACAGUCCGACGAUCCUAAUUAAACAUGCCAAAAGGAAAAAGUAAGAGAAAGAGGGAGCAAGAAGAAAAUGGAAGAAAAAGGGAAAAAAGCUAACCGGAUAACCAAUUUGUUAUAAGUUGGUUUUUGGAAUUCUCGGGUGCCAA,1.14
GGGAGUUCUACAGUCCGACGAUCCAAUCAAGUUGGCAAAUGACACAGGGAGCUGGCCCUCUGACCAUCUUCCUGGCAAACCUGGACUGGAAGGGCCAUUUGCAGCACUGUCCUGGAGCUAAUACACUGUUUCAUGGAAUUCUCGGGUGCCAA,0.317
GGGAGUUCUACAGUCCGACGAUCGAACAUUGUGGGGAGGGACUCUAAAUAAACCAGUUUAGGCAUUUGCUAGCUUUAGGUGCUUUUAUUGGUGCCUGCCCUUUUCCUUGUUCAUUUUAAUUUCUGCAAUAAUCUGGAAUUCUCGGGUGCCAA,1.3
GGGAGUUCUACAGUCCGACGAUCGGAGCAUUCUGGGAUGGUUUUGUUUCUCCCUUUUUGUGCCGAAUGGAGAAUAAAAUACUUCAAACGACUUGCAAAUAGAUAUUAUUCUUGCGUUGCAAGAACUGUAAGUCUGGAAUUCUCGGGUGCCAA,0.399
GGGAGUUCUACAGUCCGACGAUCUUUUUCUUCUCUUAAUGGGAAUCGUGAUGGUGUUGAGUUAUUUCACUGGUGGGGUUAAUAUAGCAUGUUAUCCUGUCUAUCUUUUGAAGAUUUCUGUAUAAGACUGUUGAUGGAAUUCUCGGGUGCCAA,3.46
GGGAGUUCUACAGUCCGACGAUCCCAGAGUAAACAUCAAUGCUCAGAGUUAGCAUAAUUUGGAGCUAUUCAGGAAUUGCAGAGAAAUGCAUUUUCACAGAAAUCAAGAUGUUAUUUUUGUAUACUAUAUCACUUGGAAUUCUCGGGUGCCAA,0.334
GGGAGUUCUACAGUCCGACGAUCCCUUUCUUGGGGUUUCUUUUCUGUUUUUCUUUCCGGAAGAGAAGGGCCUGAGAAAGGGCCAUGCCAGGGCACAGUGCUGGGUUGCCACACAUGGGAGGGCAGCUUCUAGCUGGAAUUCUCGGGUGCCAA,0.324
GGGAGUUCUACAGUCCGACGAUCAAAGGUAUGUAACUUCUUCAUUUGAAGGAUAAGCUGGUUUGUGUUAAGCAGUAUAGUAUUGGUUGGGUCAUUUGCAUCAUAUCGUUAGCAUUUAUUUGGUGGCAGAAUGUUGGAAUUCUCGGGUGCCAA,1.68
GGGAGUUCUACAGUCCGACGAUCACACGCAUUGUCCUUGUCAUUUGGGCCCCGAGCUCUGACCCUCGUGUCUGACGCGGCCACCUCUUUCUGGAGGGGCUGAGGACAGAUGUGCCUGCUUGUGGAGACCAGGCUGGAAUUCUCGGGUGCCAA,0.557
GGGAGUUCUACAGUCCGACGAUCGGCGCCCGUCCAGGGACACACACAGUCUUCACUGUGCUGCAGCCAGAUGAAGUCUCUCAGAUGGGUGGGGAGGGUCAGCUCCUUCCAGCGAUCAUUUUAUUUUAUUUUAUUGGAAUUCUCGGGUGCCAA,0.496
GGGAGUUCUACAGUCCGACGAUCUUUGUGGAUGGGAGACAGCAGGAUUAGCUUCAGCUUGGGCUGGAGCAGUCAAUAUAGGAUCUCAGGCCAGGCCCGCUUUUCUAGAAUGUGUUUAAUUUUGAGUUUGCUUUUGGAAUUCUCGGGUGCCAA,0.901

# Series 3 — technique: aptamer microarray, sandwich; molecule type: DNA with 2'F-ANA; sample: in vitro; tested at: 200 nM; added: Cy3 exosite-II aptamer, 400 nM; reading: higher = stronger binding; oligonucleotide: GGTTGGTGTGGTTGG
# Target: Prothrombin, mature alpha-thrombin (F2, Homo sapiens, UniProt P00734)
# Notes: whole 15-mer aptamer, many near background
Modification,mean fluorescence intensity [a.u.]
2'F-ANA at 1 2 8 9 10 11 13 15,54.4
2'F-ANA at 5 9 12 14,55.2
2'F-ANA at 1 4 5 8 10 11 12 13 15,51.9
2'F-ANA at 4 5 6 7 8 12 15,135
2'F-ANA at 2 8 10 13,119
2'F-ANA at 1 6 10 12 13 14,50.3
2'F-ANA at 3 4 8 9 11 15,585
2'F-ANA at 1 2 3 4 8 11 13 14 15,64.2

# Mixed results
Molecule,target,assay,system,conditions,scale,endpoint,value
"PhoQ, residues 284 288 289 292 302 303 GANMMA","PhoP, residues 12 14 15 18 19 LHATL (Escherichia coli, UniProt P23836)","Sort-seq, item: YFP reporter",E. coli,"PhoQ-PhoP variant library, added: 10 µM Mg2+","baseline: high Mg2+ state, higher = stronger signaling",fold induction,18

# Some of these lines once more (series 2):
Oligonucleotide,RBNS enrichment (R)
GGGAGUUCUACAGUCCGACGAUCAAAGGUAUGUAACUUCUUCAUUUGAAGGAUAAGCUGGUUUGUGUUAAGCAGUAUAGUAUUGGUUGGGUCAUUUGCAUCAUAUCGUUAGCAUUUAUUUGGUGGCAGAAUGUUGGAAUUCUCGGGUGCCAA,1.68
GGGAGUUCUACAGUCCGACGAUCACACGCAUUGUCCUUGUCAUUUGGGCCCCGAGCUCUGACCCUCGUGUCUGACGCGGCCACCUCUUUCUGGAGGGGCUGAGGACAGAUGUGCCUGCUUGUGGAGACCAGGCUGGAAUUCUCGGGUGCCAA,0.557
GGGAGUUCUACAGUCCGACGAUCGGCGCCCGUCCAGGGACACACACAGUCUUCACUGUGCUGCAGCCAGAUGAAGUCUCUCAGAUGGGUGGGGAGGGUCAGCUCCUUCCAGCGAUCAUUUUAUUUUAUUUUAUUGGAAUUCUCGGGUGCCAA,0.496
